Results pooled from the literature.
A part holds a random share of what one study measured. Positions count from the first letter of the parent shown.

Series 1
Target: Probable WRKY transcription factor 50, DNA-binding domain (WRKY50, Arabidopsis thaliana, UniProt Q8VWQ5, residues 99-173)
Technique: DNA-protein interaction ELISA
Form: double-stranded DNA, one strand shown
Matrix: in vitro, bacterial lysate
Tested at: not given
Setting: whole dsDNA probe, crude lysate protein
Relative to: highest signal in screen
Direction: higher = stronger binding
Residues (chain): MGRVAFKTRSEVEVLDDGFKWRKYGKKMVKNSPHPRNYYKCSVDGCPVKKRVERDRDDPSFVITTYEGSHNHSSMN
With `AAAAAAAATACTGCGCACTTGCACTCAAAA` the relative absorbance was 37.5 % of maximum.
`AAAAAAGTCTAGTCGTAAAAA` has a relative absorbance of 88.6 % of maximum.
`AAAAAACGGGATTCGAAACTTTTTGTAAAA` gave a relative absorbance of 14.8 % of maximum.
With `AAAAAAACCCTGTGTCGGCCGATAAAAAA` the relative absorbance was 15.8 % of maximum.
For `AAAAAACCCGTTCTACCTTATTCCTGAAAA`, the relative absorbance was 21.1 % of maximum.
With `AAAAAAGACCGCAGCAAGAATTAAATAAAA` the relative absorbance was 43.4 % of maximum.
With `AAAAAATCTTCTTGTTTCTTATTTCTAAAA` the relative absorbance was 27.9 % of maximum.
`AAAAAAAAATTTCGAGCCTCGGCGTAAAAA` has a relative absorbance of 10.4 % of maximum.

Series 2
Target: OGT, full length, His-tagged (human)
Technique: phage display, sequencing
Matrix: in vitro
Tested at: 1 µg OGT
Setting: single substitutions, 15-mer displayed peptide, unchanged parent 19.6
Relative to: input library
Direction: higher = stronger binding
Parent: peptide; TAPFYPPAYQIQVFK
`K15F` has a fold enrichment of 5.96 fold.
For `A8R`, the fold enrichment was 9.62 fold.
`F14K` gave a fold enrichment of 24.2 fold.
With `Q10I` the fold enrichment was 4.04 fold.
`A8Q` has a fold enrichment of 15.6 fold.
`Q12L` gave a fold enrichment of 5.68 fold.
With `Q10V` the fold enrichment was 0.856 fold.
With `K15Y` the fold enrichment was 4.62 fold.

Series 3
Target: CEP164, C-terminal peptide (human)
Technique: DHFR complementation, deep sequencing
Matrix: yeast
Setting: single substitutions, model-inferred values
Relative to: wild type
Direction: higher = weaker binding
Parent: PDZK1, PDZ domain 2 (human); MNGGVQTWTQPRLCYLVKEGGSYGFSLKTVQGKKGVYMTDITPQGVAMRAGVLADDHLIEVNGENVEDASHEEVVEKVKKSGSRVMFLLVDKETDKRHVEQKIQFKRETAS; partner HNRVKVYRF
For `Q104D`, “binding free energy change” read -0.153 kcal/mol.
For `S111V`, “binding free energy change” read -0.113 kcal/mol.
`G45L` — result for “binding free energy change”: 1.16 kcal/mol.
`G3F` — result for “binding free energy change”: -0.042 kcal/mol.
Under “binding free energy change”, `H57G` is recorded as 0.317 kcal/mol.
`M48H`: “binding free energy change” -0.258 kcal/mol.
`V90Q` — result for “binding free energy change”: -0.189 kcal/mol.
For `W8G`, “binding free energy change” read -0.113 kcal/mol.

Mixed results
Parent: PafA, mature enzyme, eGFP fusion (Elizabethkingia meningoseptica, UniProt Q9KJX5); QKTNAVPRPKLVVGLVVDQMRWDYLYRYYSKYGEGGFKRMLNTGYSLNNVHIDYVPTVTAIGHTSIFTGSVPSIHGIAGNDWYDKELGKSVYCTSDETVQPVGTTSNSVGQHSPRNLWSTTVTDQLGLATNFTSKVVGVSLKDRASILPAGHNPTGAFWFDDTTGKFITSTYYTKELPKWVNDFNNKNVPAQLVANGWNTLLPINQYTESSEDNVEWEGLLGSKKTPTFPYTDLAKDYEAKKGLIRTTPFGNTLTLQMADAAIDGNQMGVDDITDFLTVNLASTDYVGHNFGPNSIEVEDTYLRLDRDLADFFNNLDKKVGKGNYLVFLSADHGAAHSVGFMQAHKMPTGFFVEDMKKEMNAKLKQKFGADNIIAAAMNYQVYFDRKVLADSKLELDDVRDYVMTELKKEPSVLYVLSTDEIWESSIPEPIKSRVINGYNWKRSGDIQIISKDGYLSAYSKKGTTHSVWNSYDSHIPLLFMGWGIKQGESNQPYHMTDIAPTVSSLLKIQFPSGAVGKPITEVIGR
For `N314G`, “phosphate dissociation constant” read 524 µM (inorganic phosphate, free oxyanion; microfluidic competitive inhibition; in vitro, cell-free expressed; not given, derived from inhibition constants, unchanged parent 615000 nM; lower = stronger binding).

A few entries again (series 3):
`G45L` — result for “binding free energy change”: 1.16 kcal/mol.
For `S111V`, “binding free energy change” read -0.113 kcal/mol.
